Measured values from different studies.
Every numbered part comes from another study and shows a few of its results, in no order.

Sample 1 — method: protein-binding microarray; molecule type: double-stranded DNA, one strand shown; sample: in vitro; tested at: 250 nM; setting: 60-bp whole probe; with: salmon DNA 0.4 mg/ml; relative to: random background probes; reading: higher = stronger binding; quantity: log fluorescence; constant ends, left off below: GCCTAGCAC … GTCTTGATTCGCTTGACGCTGCTG
Target: Interferon regulatory factor 7, full length, phosphomimetic (IRF7, Homo sapiens, UniProt Q92985, residues 1-503, S101K/S471D/S472D/S475D/S476D/S477D/S483D/S484D/S487D)
Residues (chain): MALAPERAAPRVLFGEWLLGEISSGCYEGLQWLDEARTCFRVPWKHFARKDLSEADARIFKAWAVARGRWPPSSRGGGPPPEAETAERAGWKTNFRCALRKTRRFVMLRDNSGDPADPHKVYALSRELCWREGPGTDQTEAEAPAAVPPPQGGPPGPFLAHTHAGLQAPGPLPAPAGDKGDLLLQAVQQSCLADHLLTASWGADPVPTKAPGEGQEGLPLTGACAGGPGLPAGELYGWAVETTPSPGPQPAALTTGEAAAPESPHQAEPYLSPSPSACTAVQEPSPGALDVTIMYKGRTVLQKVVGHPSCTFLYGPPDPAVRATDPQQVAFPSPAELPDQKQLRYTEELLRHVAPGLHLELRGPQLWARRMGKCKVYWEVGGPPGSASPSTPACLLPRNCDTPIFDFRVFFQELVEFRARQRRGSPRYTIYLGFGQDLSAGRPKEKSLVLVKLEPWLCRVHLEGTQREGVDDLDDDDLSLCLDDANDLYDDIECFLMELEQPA
GACAATTTGGAAACCGAGTGGTGCTAG: 0.163 z-score
TAGATATTATATCTGTGTTAGTGCTAG: 0.547 z-score
ATAGAACTGAGTTTCGATTAGTGCTAG: 8.52 z-score
TGAGGACTGGACTATCGGTTAGTGCTA: -0.497 z-score
TTCGGTCTCGGTATCGGTTAGTGCTAG: 3.43 z-score
TTAGATATCGGGACTGGAGTAGTGCTA: -0.578 z-score
TTAGGTATCGCACTGGGTTAGTGCTAG: 0.154 z-score

Sample 2 — method: aptamer microarray, sandwich; molecule type: DNA with 2'F-ANA; sample: in vitro; tested at: 200 nM; with: Cy3 exosite-II aptamer, 400 nM; reading: higher = stronger binding; quantity: mean fluorescence intensity; sequence: GGTTGGTGTGGTTGG
Target: Prothrombin, mature alpha-thrombin (F2, Homo sapiens, UniProt P00734)
Setting: whole 15-mer aptamer, many near background
2'F-ANA at 1 2 3 4 8 10 12 13: 60.5 a.u.
2'F-ANA at 2 6 7 10 11 12 14: 81.4 a.u.
2'F-ANA at 1 5 8 9 11: 57.2 a.u.
2'F-ANA at 1 2 5 6 8 9 11 12 13 14 15: 71.2 a.u.
2'F-ANA at 1 2 3 4 6 7 10 12: 76.3 a.u.
2'F-ANA at 2 5 7 9 12 13: 103 a.u.
2'F-ANA at 5 6 7 8 9 10 11 13 14 15: 52.6 a.u.
2'F-ANA at 3 5 10 11 12 13 15: 83.2 a.u.
2'F-ANA at 1 2 3 5 8 9 10 13 14 15: 45.1 a.u.
2'F-ANA at 1 2 3 4 5 6 7 10 13 15: 45.9 a.u.

Sample 3 — method: RNA Bind-n-Seq; molecule type: RNA; sample: in vitro; tested at: 365 nM; relative to: no-protein control; reading: higher = stronger binding; quantity: RBNS enrichment (R)
Target: RNA binding protein fox-1 homolog 2, RRM domain, GST-SBP tag (RBFOX2, Homo sapiens, UniProt O43251-10, residues 100-194)
Setting: natural RNA segment, single round, ends assumed
Target sequence (chain): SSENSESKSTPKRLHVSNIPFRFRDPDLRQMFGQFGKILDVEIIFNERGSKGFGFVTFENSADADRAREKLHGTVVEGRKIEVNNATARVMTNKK
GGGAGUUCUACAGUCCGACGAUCCGGCAGCGUGUAGGGCUUCAGCUUCCUGGGUUUUCACCCUUCCUGCAGGCACUGUGGGGUCCUGAGGGCCAGUGGGUCCAUUUCACCUCUUGCUGCAUGAUGGUCAGUAGUGGAAUUCUCGGGUGCCAA: 0.852
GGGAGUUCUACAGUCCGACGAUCCUUCUCCCUCCAGACCUUCCUCUGACCCUUGCUGAACUGGGGUCCCUUUGUGAGUGUCUCAGUCUAGAGGUACCUCCCUCCCUGGGGGGUCUCAGCUCCUGGAGUCGCAGUGGAAUUCUCGGGUGCCAA: 0.39
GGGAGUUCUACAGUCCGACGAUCUCCCCCGCCUGUCAGUCUGGCCCCCUGUGCUUUGCUCCCUGUGCUCAGUGGUCACUUUCCCGCUCCCACUUGGGGCUGGGAGCCGUGCCACCAUCCCCUAGAAGUCCUGUUGGAAUUCUCGGGUGCCAA: 0.709
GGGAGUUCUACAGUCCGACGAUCUCUGGUUGGGCCUUUGAAAGGCUCAGCCUCCCAUUGUGCAGUGCUUGGGUUUGGAGCUUAUUUGAAUGGAAGAGGUCAGUUUGUUCCUGGCUCUCCAUUUCUGGCCUCAGUGGAAUUCUCGGGUGCCAA: 0.415
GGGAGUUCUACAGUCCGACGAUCACCUGGUCUGGUCAGGCAAUGCCCUGCGGCUCUGGAAAGCAACUUCAUCCCAGCUGCUGAGGCGAAAUAUAAAACUGAGACUGUAUAUGUUGUGAAUGGGCUUUCAUAAAUGGAAUUCUCGGGUGCCAA: 2.17
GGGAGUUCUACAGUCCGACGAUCGACGUGCUAGCCAUUUCCAGUGUCCCAACUACUGUCAUCGUGAGGUUUUCAUCGGCUGUGCCAUUUCCCAACGUCUUUUGGGAUUUACAUCUGUCUGUGUUAAAAUAAUCUGGAAUUCUCGGGUGCCAA: 0.312
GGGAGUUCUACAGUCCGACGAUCAAAUACUCAGCUCCAUCAAGAGGAAUUGUGUCUAAGAGGAUACCCCUGUUAAUCUCCUUUUUUCUUGGAUUGGAGAGGAGAGAAUCUGGACAUGGCUUUGGACUUGGAGGUGGAAUUCUCGGGUGCCAA: 0.543

Further values, each from its own experiment
PhoQ, residues 284 288 289 292 302 303 TTCLQL
fold induction (PhoP, residues 12 14 15 18 19 NQGLL (Escherichia coli, UniProt P23836); Sort-seq, measured: YFP reporter; E. coli; PhoQ-PhoP variant library, with: 10 µM Mg2+; relative to: high Mg2+ state, higher = stronger signaling): 2.03

A few entries again (sample 2):
2'F-ANA at 1 2 3 4 8 10 12 13: 60.5 a.u.
